Experimental data from different studies.
Numbered parts are unrelated; each lists some results of a single study. Values joined by “and” are separate records of one study, mostly repeats; a detail may differ.
Chain of UniProt Q9H422 (whole entry, looked up): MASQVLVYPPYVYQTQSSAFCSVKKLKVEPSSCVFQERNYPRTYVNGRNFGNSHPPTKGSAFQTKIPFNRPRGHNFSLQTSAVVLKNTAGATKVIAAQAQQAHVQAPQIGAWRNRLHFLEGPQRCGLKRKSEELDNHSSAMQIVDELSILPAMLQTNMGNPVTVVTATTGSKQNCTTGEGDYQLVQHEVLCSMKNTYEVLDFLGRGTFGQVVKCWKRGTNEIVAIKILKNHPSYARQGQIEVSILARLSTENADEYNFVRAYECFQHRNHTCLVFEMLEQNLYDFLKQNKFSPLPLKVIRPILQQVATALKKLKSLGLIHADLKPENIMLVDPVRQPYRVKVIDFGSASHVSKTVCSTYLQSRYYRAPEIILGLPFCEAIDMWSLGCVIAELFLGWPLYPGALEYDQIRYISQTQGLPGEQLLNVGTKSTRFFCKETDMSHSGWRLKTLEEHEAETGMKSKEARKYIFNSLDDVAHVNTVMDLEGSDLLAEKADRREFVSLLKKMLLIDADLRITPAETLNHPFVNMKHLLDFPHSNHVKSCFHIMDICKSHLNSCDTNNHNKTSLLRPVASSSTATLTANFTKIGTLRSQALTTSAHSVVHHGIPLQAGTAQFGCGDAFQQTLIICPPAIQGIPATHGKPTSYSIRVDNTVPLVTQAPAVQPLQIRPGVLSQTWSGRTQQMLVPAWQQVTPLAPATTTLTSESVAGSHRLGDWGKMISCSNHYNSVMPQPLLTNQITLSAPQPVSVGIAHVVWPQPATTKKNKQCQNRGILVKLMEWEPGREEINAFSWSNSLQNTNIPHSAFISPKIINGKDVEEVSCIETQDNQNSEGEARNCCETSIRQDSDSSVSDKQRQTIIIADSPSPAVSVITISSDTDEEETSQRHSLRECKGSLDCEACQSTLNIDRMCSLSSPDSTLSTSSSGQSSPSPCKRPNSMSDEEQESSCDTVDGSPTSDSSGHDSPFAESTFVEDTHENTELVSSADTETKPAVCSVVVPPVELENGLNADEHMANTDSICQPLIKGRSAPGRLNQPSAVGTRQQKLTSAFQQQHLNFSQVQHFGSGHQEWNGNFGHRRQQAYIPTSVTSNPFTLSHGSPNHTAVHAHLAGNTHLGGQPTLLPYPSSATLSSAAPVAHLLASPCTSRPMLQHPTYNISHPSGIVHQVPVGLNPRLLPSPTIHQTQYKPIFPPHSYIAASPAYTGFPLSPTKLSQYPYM
Chain of UniProt Q8TDX7 (whole entry, looked up): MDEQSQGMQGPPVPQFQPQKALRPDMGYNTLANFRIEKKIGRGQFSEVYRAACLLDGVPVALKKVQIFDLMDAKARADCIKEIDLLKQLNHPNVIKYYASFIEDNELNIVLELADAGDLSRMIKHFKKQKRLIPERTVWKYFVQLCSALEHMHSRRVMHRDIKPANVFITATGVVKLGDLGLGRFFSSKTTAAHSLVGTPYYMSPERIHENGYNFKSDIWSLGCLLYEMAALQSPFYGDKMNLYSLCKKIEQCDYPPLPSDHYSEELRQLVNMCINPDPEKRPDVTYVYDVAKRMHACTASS
Chain of UniProt P17948 (whole entry, looked up): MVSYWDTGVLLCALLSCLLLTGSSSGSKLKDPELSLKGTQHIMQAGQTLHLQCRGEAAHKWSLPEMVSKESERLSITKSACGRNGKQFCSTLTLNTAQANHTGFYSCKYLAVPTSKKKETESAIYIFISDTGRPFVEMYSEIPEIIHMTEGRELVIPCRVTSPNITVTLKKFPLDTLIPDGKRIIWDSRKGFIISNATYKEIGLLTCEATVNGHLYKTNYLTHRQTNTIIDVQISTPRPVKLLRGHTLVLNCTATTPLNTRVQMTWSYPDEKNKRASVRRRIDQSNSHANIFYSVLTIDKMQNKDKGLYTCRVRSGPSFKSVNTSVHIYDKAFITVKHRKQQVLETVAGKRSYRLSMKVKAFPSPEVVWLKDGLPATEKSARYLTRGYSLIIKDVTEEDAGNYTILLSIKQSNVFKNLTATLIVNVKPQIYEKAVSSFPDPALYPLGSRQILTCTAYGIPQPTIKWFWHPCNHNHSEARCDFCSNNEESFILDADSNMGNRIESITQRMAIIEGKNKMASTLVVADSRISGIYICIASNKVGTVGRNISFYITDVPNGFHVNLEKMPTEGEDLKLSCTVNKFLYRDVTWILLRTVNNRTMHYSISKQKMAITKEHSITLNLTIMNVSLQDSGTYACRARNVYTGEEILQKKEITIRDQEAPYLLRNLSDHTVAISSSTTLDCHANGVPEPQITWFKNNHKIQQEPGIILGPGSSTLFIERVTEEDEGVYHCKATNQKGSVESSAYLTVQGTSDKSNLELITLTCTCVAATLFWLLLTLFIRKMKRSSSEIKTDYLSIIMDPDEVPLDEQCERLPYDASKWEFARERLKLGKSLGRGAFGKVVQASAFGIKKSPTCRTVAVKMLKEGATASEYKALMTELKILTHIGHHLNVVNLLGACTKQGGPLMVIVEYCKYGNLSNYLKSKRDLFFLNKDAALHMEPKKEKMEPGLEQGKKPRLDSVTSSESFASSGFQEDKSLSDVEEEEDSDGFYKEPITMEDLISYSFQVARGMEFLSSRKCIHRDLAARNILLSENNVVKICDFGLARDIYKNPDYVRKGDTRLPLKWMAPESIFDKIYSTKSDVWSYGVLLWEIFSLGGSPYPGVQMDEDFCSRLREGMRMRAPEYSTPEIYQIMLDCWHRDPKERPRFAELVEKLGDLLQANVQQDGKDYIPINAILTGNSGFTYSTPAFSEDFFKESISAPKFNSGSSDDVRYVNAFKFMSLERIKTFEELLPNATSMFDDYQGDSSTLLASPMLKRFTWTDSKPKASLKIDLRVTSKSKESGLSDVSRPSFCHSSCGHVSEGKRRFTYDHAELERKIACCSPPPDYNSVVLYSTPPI

Series 1 — read-out: enzyme activity; mode: inhibitor; concentration: 0.5 µM; reference: control
Target: Serine/threonine-protein kinase Sgk2 (SGK2, Homo sapiens, UniProt Q9HBY8)
Target sequence (Q9HBY8 1-367): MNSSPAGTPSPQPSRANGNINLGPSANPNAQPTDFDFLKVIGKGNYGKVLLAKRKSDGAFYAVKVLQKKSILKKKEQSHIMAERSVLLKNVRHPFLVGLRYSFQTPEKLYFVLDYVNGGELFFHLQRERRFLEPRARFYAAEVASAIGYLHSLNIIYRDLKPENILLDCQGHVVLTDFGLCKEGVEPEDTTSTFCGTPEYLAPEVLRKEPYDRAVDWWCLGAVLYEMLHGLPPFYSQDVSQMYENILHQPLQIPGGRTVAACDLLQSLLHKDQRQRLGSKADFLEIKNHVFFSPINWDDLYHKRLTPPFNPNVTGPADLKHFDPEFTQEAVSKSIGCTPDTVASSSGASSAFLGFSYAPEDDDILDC
With `N#CC(C#N)=C(N)/C(C#N)=C/c1ccc(O)cc1` the remaining activity was 110%.
`O=C(CCCc1ccc(-c2ccccc2F)cc1)Nc1ccc(O)cc1` gave a remaining activity of 101%.
`CC(C)[C@H](CO)Nc1nc(Nc2cc(N)cc(Cl)c2)c2ncn(C(C)C)c2n1` gave a remaining activity of 121%.
With `CO[C@H]1C[C@@H]2CC[C@@H](C)[C@@](O)(O2)C(=O)C(=O)N2CCCC[C@H]2C(=O)O[C@H]([C@H](C)C[C@@H]2CC[C@@H](O)[C@H](OC)C2)CC(=O)[C@H](C)/C=C(\C)[C@@H](O)[C@@H](OC)C(=O)[C@H](C)C[C@H](C)/C=C/C=C/C=C/1C` the remaining activity was 101%.
For `Cn1sc(=O)n(Cc2ccccc2)c1=O`, the remaining activity was 100%.
`C#Cc1cccc(Nc2ncnc3cc(OCCOC)c(OCCOC)cc23)c1` has a remaining activity of 107%.
With `Cn1c2ccccc2c2c3c(c4c5ccccc5n(CCC#N)c4c21)CNC3=O` the remaining activity was 94%.
`O=S(=O)(c1cccc2cnccc12)N1CCCNCC1` gave a remaining activity of 91.9%.
The remaining activity of `COc1ccc(OC)c2c(=S)c3ccccc3[nH]c12` is reported as 96.5%.
For `Nc1[nH]nc2nc3ccccc3nc12`, the remaining activity was 90.3%.
With `NCCNc1ncc(C(N)=O)c(Nc2cccc(C(F)(F)F)c2)n1` the remaining activity was 99.7%.
For `Oc1ccc(-c2nc(-c3ccncc3)c(-c3ccc(F)cc3)[nH]2)cc1`, the remaining activity was 99.6%.
With `O=c1c2ccccc2[nH]c(=S)n1CCN1CCC(=C(c2ccc(F)cc2)c2ccc(F)cc2)CC1` the remaining activity was 99.1%.
The remaining activity of `Cc1nc(-c2ccccc2)c(-c2ccncc2)o1` is reported as 105%.
For `Nc1ncnc2n[nH]c(Nc3ccc(F)cc3)c12`, the remaining activity was 96.5%.
`Cc1ccc(Nc2nccc(N(C)c3ccc4c(C)n(C)nc4c3)n2)cc1S(N)(=O)=O` gave a remaining activity of 160%.

Series 2 — read-out: cell-free assay; technique: competition with immobilised ligand; concentration: 1 µM
Structure (SMILES): CN(C)CC#Cc1ccc(OCCCc2sc(N3CCc4cccc(C(=O)Nc5nc6ccccc6s5)c4C3)nc2C(=O)O)c(F)c1
Serine/threonine-protein kinase Nek7 (NEK7, Homo sapiens, UniProt Q8TDX7) — remaining binding: 99%.
Receptor-type tyrosine-protein kinase FLT3 (FLT3, Homo sapiens, UniProt P36888, D835V) — remaining binding: 100%.
For Vascular endothelial growth factor receptor 1 (FLT1, Homo sapiens, UniProt P17948): remaining binding read 92%.
The remaining binding was 87% (Homeodomain-interacting protein kinase 3 (HIPK3, Homo sapiens, UniProt Q9H422)).
Serine/threonine-protein kinase Sgk2 (SGK2, Homo sapiens, UniProt Q9HBY8) — remaining binding: 100%.

Series 3 — cell line: mouse MPNST tumor cells; technique: high-content nuclear imaging; measured: cell number; concentration: 10 µM; time: 12 h; setting: mean of 2 replicates; reference: plate mean; direction: higher = more cells
The nuclei count of `COc1ccccc1O` is reported as -0.498 z-score.
`CC[C@]12CCCN3CCc4c(n(c5ccccc45)[C@@](O)(C(=O)OC)C1)[C@@H]32` gave a nuclei count of 3.55 z-score.
`COc1cc2nc(N3CCCN(C)CC3)nc(NC3CCN(Cc4ccccc4)CC3)c2cc1OC` gave a nuclei count of -4.8 z-score.
`Cc1cccc(Nc2cc(Cl)nc(SCC(=O)O)n2)c1C` has a nuclei count of 1.71 z-score.
For `CN(C)CCc1c[nH]c2ccc(Cn3cncn3)cc12`, the nuclei count was 1.1 z-score and 0.756 z-score.
With `CN(C)CCOc1cc(-c2cn[nH]c2)ccc1NC(=O)C1COc2ccccc2O1` (stereo not drawn) the nuclei count was 0.993 z-score.
With `O=C(Nc1ccccc1)C12CC1C(=NO)c1ccccc1O2` (stereo not drawn) the nuclei count was 4.13 z-score.
With `O=C(Oc1cccc(F)c1OC(=O)c1cccc(O)c1)c1cccc(O)c1` the nuclei count was -1.26 z-score.

Series 4 — organism: Plasmodium berghei; mode: inhibitor; cell line: Huh-7; strain: GFP-expressing, liver stage; concentration: 10 µM; time: 24 h; reference: untreated control
With `COc1ccc(C(=O)c2ccccc2)c(O)c1` the infection rate was 88.2%.
With `Cc1cc2nc3c(=O)[nH]c(=O)nc-3n(C[C@H](O)[C@H](O)[C@H](O)CO)c2cc1C` the infection rate was 80.5%.
`CC[C@]1(O)C[C@@H]2CN(CCc3c([nH]c4ccccc34)[C@@](C(=O)OC)(c3cc4c(cc3OC)N(C)[C@H]3[C@@](O)(C(=O)OC)[C@H](OC(C)=O)[C@]5(CC)C=CCN6CC[C@]43[C@@H]65)C2)C1` has an infection rate of 53.2%.
The infection rate of `COc1cnc(NS(=O)(=O)c2ccc(N)cc2)nc1` is reported as 114%.
For `CC1=C(C/C=C(\C)CCC[C@H](C)CCC[C@H](C)CCCC(C)C)C(=O)c2ccccc2C1=O`, the infection rate was 100%.
`CCCc1cc(=O)[nH]c(=S)[nH]1` gave an infection rate of 102%.

Further values, each from its own experiment
For `CC(C)n1cnc(-c2ccc(F)cc2)c1-c1ncc(C(=O)Nc2ccc(N3CCN(C)CC3)cc2)[nH]1`, “patients with Appendicitis TEAE” read 0% (phase 2a clinical trial; patients with idiopathic pulmonary fibrosis; 60 mg once daily).

Excerpt of the above (series 3):
With `CN(C)CCOc1cc(-c2cn[nH]c2)ccc1NC(=O)C1COc2ccccc2O1` (stereo not drawn) the nuclei count was 0.993 z-score.
With `O=C(Nc1ccccc1)C12CC1C(=NO)c1ccccc1O2` (stereo not drawn) the nuclei count was 4.13 z-score.
With `O=C(Oc1cccc(F)c1OC(=O)c1cccc(O)c1)c1cccc(O)c1` the nuclei count was -1.26 z-score.
